Measured values gathered from unrelated publications.
Parts stem from different laboratories: compare values within a part only. Changes are numbered by the printed parent chain.

Sample 1
Target: Histone acetyltransferase KAT6A, both winged helices, GST fusion (KAT6A, Homo sapiens, UniProt Q92794, residues 1-181)
Method: protein binding microarray
Molecule type: double-stranded DNA, one strand shown
Matrix: in vitro
Tested at: not given
Setting: 8-mer, flanks averaged, mean of 2 arrays, mostly near background
Relative to: not given
Reading: higher = stronger binding
Construct (chain): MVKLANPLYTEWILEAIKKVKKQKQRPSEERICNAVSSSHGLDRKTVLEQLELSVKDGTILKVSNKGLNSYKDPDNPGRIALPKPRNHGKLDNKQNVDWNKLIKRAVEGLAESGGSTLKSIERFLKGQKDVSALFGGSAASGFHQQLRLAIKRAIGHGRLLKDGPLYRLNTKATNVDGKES
For `CAATTGGC`, the E-score was -0.0533.
For `ACCATTGG`, the E-score was -0.143.
`TTAGGCAA` has an E-score of -0.217.
`AACAGTGT` gave an E-score of -0.206.
With `CGGTAGCA` the E-score was 0.0256.
The E-score of `CATAGTAA` is reported as -0.131.
For `CCTGATTC`, the E-score was -0.168.
With `CCTCCCAG` the E-score was -0.188.
For `ATTAAGGA`, the E-score was -0.0348.
With `ATCAAGAT` the E-score was -0.0743.
With `ACTCCCGA` the E-score was -0.0439.
`GTACAGTA` has an E-score of -0.143.
With `AATTAAGG` the E-score was -0.187.
`ACAGCGAA` gave an E-score of -0.0502.
`AAGCCTAC` gave an E-score of 0.00185.
`AGCCGTAC` has an E-score of 0.275.
`ACGATCGG` gave an E-score of 0.178.
`CTTGTTCA` has an E-score of -0.027.
`AGTCAGTA` has an E-score of 0.0251.

Sample 2
Target: CCND2, cyclin fold, Cln2 fusion (human)
Method: yeast growth competition, sequencing
Matrix: yeast
Setting: weak parent motif
Relative to: not given
Reading: higher = stronger binding
Starting sequence: DTL docking peptide (human); PSSMRKICTYFHR
Under “normalised enrichment score”, `PSSMRKICAYFHR [T9A]` is recorded as -0.459.
For `PSSMRAICTYFHR [K6A]`, “normalised enrichment score” read -0.454.
`PSSMRKIATYFHR [C8A]`: “normalised enrichment score” -0.867.
`PSAMRKICTYFHR [S3A]`: “normalised enrichment score” -0.959.
`ASSMRKICTYFHR [P1A]`: “normalised enrichment score” -0.387.
`PSSMRKACTYFHR [I7A]`: “normalised enrichment score” -0.374.

Sample 3
Target: RNA binding protein fox-1 homolog 2, RRM domain, GST-SBP tag (RBFOX2, Homo sapiens, UniProt O43251-10, residues 100-194)
Method: RNA Bind-n-Seq
Molecule type: RNA
Matrix: in vitro
Tested at: 365 nM
Setting: natural RNA segment, single round, ends assumed
Relative to: no-protein control
Reading: higher = stronger binding
Residues (chain): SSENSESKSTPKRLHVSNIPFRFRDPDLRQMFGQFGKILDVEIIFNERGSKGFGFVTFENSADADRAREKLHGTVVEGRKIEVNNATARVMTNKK
For `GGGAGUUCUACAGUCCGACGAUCGAAGAACCACGAGGCUCUGGCUGAGCCUCCCUCUGGAGUGCUAGUGUACCUGUGGGUCUGUCCUCUGCUCUGUGCAGAUGGGUUUUACUGUCUGCUGUGUUUUCUUACGAUGGAAUUCUCGGGUGCCAA`, “RBNS enrichment (R)” read 0.29.
`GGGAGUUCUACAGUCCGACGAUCCCUAUCAGGAAAAGUUUCUAGAAAGCCAACGAGGGUCAGUAGUUUAGUGUCAUUCCUGGAAUUAACUUAUCAUGCAUUUGCUUAGUUAAAGUCAAAAUUUAAUAUUGGUUUGGAAUUCUCGGGUGCCAA`: “RBNS enrichment (R)” 0.851.
For `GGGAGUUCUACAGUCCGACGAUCUCCAAAUGACCUCUAUCAGCUGUUGAGUCAGACAGAUCCACGGACAUGUCUACCAAAAAAUGAUGUGGAGGUUUAGGUGGGAUUCACCCUUAGUACAAUUCUUAGUGUCAUGGAAUUCUCGGGUGCCAA`, “RBNS enrichment (R)” read 0.361.
`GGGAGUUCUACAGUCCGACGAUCAUAGCCUAUUUUGAACCAUUUGAACUGUAGAAAAAUGGCAAAUAUAUACUUACAUGUAUGUUCUUAAGAGAAAAACUAGGUACCCAUAGUGCACGUUUGAUUAGGAGUGUUGGAAUUCUCGGGUGCCAA` — result for “RBNS enrichment (R)”: 14.
For `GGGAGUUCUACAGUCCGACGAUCUUGGUGGUCCUAAGUGGGUCACUUAAGAAAAAAAAGUGUAACAAAUUCUCGCUCCAUGAACCUGGUUUUUUUUUAUUCUGUUGUGGAAAUUUUUAAAUCUCCAACUUGCUUGGAAUUCUCGGGUGCCAA`, “RBNS enrichment (R)” read 0.621.
`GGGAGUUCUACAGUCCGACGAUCAGCAUAGUCAACAGCGAGCAUAAAGACUUUGUCACUUGGAGCGUUACCAGCAGAGUAAAUGUGGCCAUUGACUGGCCUAAGCAUUCUCUAAGAGUUGUGCUAGAUGGCUUUGGAAUUCUCGGGUGCCAA`: “RBNS enrichment (R)” 0.457.
For `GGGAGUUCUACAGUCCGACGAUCAAGUAACUAAAUAGACUGCGGCACUUUUUUGCUUUAAACUAGAUCAUCUUAGAUUUGUCGAUACCUUCGAAAUUUGAUGGUUUCAUCCCAAAUGACUGCACUAUAUGUAUUGGAAUUCUCGGGUGCCAA`, “RBNS enrichment (R)” read 1.72.
`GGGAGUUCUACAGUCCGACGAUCCCCCCGGGAGGGCUGCCGCACUGCCAAAGAGUCUCCCUCCUCCUGGGGAAGGGGCUGCCAACGAACCAGACUCAGUGACCACGUCAUGACAGAACAGCACAUCCUGGCCAUGGAAUUCUCGGGUGCCAA`: “RBNS enrichment (R)” 0.381.
`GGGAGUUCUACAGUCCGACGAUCCCUGAGUCAGUCACAUCUGGCAGCUGGCAGCAAGCUCUUCAUCCCUCCACAGUGAGGAAGCUGGCAGCGAGCAGGUAGACCUGGAGACUGCACGGCUGCUGAUUGGUCUUUGGAAUUCUCGGGUGCCAA` — result for “RBNS enrichment (R)”: 0.472.
For `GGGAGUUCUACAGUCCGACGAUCACGAGUUUAAAAAUUAAGAGCGAUUAGCUGUUCACUUUGGUAACAGGUAGUUAAGUGUCACACAAGGUGUUGUUGCAAUGGCAUGACGGUGACCUGUUGACGUAACUAAGUGGAAUUCUCGGGUGCCAA`, “RBNS enrichment (R)” read 0.935.
Under “RBNS enrichment (R)”, `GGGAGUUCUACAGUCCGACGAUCUUACCCCAGUACUGUUAGAAACAUUUGUACUAGGUUAUAAGAUCUUUCUGUGACAGGUAACAAAUUUGGGGAAGACAGCACAAUCUUCUUGAAUGUAGCUCUUGGGAAUGUGGAAUUCUCGGGUGCCAA` is recorded as 0.794.
`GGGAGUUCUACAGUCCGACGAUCACAAUGAAAGACCCUGGCCCUGUCUCUCAAAACUUAACUUUCUCUGUAUGAUUUUUUUUUUAAAAAAAUAUUCCAUUUAUUUUACUUUGUGGUUACUUGAUUUUGAGGAAUGGAAUUCUCGGGUGCCAA`: “RBNS enrichment (R)” 0.779.

Mixed results
`PhoQ, residues 284 288 289 292 302 303 TAVSDG` has a fold induction of 8.03 (PhoP, residues 12 14 15 18 19 VQALL (Escherichia coli, UniProt P23836); Sort-seq, item: YFP reporter; E. coli; PhoQ-PhoP variant library, together with: 10 µM Mg2+; relative to: high Mg2+ state, higher = stronger signaling).

Excerpt of the above (sample 3):
`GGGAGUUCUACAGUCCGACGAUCAGCAUAGUCAACAGCGAGCAUAAAGACUUUGUCACUUGGAGCGUUACCAGCAGAGUAAAUGUGGCCAUUGACUGGCCUAAGCAUUCUCUAAGAGUUGUGCUAGAUGGCUUUGGAAUUCUCGGGUGCCAA`: “RBNS enrichment (R)” 0.457.
`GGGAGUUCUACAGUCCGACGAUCCCCCCGGGAGGGCUGCCGCACUGCCAAAGAGUCUCCCUCCUCCUGGGGAAGGGGCUGCCAACGAACCAGACUCAGUGACCACGUCAUGACAGAACAGCACAUCCUGGCCAUGGAAUUCUCGGGUGCCAA`: “RBNS enrichment (R)” 0.381.
`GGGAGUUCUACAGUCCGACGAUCAUAGCCUAUUUUGAACCAUUUGAACUGUAGAAAAAUGGCAAAUAUAUACUUACAUGUAUGUUCUUAAGAGAAAAACUAGGUACCCAUAGUGCACGUUUGAUUAGGAGUGUUGGAAUUCUCGGGUGCCAA` — result for “RBNS enrichment (R)”: 14.
